Measured values from different studies.
Parts stem from different laboratories: compare values within a part only.
Chain of UniProt O14976 (whole entry, looked up): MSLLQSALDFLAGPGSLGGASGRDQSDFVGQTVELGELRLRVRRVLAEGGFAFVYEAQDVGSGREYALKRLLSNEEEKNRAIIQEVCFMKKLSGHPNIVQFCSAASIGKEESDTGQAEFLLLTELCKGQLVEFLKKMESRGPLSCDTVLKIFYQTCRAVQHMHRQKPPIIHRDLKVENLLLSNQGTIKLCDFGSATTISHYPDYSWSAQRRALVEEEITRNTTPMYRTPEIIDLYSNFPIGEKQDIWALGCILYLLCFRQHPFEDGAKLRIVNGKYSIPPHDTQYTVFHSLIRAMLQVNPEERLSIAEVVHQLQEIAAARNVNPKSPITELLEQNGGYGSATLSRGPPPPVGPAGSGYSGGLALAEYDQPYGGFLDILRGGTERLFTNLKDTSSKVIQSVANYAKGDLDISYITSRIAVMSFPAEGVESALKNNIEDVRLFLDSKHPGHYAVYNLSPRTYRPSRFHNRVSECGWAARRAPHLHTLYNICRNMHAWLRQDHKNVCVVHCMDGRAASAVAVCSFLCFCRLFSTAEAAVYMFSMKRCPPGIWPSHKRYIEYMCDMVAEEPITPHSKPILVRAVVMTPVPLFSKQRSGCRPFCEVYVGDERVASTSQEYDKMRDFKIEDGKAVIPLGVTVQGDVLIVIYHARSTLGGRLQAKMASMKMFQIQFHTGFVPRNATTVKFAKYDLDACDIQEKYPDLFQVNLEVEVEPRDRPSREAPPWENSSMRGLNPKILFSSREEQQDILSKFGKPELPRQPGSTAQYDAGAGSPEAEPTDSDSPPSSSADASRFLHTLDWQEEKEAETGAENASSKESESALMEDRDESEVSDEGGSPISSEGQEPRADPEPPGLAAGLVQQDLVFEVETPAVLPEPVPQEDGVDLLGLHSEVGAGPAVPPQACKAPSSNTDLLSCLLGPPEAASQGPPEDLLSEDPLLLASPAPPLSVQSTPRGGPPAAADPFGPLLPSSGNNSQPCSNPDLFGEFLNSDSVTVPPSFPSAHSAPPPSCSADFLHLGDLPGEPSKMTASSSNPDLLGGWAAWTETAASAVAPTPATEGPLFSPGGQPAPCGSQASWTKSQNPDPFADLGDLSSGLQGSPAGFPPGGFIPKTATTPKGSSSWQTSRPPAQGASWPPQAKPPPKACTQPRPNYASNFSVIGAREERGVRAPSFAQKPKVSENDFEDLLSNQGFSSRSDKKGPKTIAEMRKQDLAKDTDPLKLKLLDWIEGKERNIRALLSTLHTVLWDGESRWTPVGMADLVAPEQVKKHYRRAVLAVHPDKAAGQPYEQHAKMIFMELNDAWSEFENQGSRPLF
Chain of UniProt P57058 (whole entry, looked up): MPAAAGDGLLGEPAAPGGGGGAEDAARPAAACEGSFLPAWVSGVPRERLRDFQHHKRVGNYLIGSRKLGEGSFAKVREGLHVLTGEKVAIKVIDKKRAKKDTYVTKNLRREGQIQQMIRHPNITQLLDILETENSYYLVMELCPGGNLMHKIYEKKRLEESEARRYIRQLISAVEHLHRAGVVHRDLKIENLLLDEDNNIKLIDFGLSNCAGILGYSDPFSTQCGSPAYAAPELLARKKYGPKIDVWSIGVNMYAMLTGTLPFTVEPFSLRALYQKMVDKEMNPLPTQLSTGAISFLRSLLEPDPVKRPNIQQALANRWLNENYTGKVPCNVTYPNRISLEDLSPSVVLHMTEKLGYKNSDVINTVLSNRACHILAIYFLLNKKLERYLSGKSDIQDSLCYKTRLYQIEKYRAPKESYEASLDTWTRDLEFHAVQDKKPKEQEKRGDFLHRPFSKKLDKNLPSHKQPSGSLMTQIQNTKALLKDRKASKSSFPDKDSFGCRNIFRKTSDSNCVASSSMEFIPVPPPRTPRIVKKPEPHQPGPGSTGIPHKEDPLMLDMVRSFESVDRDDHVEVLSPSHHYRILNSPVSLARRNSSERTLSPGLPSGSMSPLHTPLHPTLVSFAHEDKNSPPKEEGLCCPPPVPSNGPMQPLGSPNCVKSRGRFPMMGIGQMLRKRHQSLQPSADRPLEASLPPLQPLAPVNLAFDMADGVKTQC
Chain of UniProt P00519 (whole entry, looked up): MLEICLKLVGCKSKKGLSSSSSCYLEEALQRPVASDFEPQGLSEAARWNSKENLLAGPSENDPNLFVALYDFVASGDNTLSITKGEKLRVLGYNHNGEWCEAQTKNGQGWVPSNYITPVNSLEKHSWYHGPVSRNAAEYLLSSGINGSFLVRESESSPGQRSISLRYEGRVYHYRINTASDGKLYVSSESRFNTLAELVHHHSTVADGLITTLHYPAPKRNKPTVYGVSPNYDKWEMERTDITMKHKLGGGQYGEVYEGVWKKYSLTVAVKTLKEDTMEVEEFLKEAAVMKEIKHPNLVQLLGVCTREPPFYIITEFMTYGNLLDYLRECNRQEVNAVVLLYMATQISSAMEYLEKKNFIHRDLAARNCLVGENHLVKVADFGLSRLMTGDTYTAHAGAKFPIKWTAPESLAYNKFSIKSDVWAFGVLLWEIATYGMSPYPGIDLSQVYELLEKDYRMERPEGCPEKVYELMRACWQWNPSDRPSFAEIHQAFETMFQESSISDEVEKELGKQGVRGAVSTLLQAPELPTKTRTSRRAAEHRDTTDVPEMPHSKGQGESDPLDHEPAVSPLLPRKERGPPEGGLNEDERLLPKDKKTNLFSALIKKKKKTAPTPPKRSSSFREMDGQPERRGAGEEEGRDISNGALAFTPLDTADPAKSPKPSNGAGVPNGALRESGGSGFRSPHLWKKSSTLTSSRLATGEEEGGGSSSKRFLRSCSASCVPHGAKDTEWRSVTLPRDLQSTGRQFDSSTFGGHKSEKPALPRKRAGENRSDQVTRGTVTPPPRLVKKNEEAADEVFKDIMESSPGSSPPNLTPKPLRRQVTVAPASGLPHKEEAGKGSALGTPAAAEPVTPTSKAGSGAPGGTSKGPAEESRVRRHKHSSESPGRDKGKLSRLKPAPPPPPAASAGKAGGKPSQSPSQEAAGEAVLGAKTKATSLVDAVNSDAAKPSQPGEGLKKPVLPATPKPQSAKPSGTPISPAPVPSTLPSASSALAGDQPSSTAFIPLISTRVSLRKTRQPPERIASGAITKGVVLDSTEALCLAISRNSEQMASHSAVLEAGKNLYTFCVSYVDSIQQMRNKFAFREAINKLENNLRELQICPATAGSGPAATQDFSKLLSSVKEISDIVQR
Chain of UniProt Q32MK0 (whole entry, looked up): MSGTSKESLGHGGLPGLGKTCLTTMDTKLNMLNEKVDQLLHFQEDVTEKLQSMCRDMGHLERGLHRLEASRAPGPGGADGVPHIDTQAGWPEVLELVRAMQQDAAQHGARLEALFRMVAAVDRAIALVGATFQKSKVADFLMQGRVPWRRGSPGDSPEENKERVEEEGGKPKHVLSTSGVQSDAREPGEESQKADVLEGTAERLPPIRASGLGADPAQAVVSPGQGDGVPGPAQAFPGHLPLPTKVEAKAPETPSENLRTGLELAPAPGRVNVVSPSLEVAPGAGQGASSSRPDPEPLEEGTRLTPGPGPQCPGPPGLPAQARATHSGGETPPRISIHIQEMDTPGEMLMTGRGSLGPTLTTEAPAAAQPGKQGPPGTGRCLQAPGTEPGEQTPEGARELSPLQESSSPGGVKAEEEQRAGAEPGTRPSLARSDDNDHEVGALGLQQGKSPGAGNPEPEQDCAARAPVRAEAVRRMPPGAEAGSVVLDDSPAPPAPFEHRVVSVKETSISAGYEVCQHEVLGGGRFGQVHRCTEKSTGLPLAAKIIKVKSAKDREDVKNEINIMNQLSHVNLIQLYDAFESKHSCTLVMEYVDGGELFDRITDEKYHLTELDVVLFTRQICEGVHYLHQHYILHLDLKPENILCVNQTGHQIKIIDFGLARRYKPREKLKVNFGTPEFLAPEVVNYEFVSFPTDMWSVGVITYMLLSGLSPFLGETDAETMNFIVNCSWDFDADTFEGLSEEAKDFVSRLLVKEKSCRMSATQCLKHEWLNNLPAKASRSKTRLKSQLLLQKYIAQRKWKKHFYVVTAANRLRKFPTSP
Chain of UniProt Q9UQB9 (whole entry, looked up): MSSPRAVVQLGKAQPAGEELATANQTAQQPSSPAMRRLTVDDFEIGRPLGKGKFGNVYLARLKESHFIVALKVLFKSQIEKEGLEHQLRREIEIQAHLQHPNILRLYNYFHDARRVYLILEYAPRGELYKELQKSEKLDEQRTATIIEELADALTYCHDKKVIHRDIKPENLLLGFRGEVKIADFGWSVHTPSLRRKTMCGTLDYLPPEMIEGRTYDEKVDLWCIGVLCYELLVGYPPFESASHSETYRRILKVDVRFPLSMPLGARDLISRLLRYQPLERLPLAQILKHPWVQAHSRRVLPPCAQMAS

Sample 1 — method: competition with immobilised ligand; concentration: 1 µM
Compound: O=C(N[C@H]1CCCCC/C=C\C2C[C@@]2(C(=O)O)NC(=O)[C@@H]2C[C@@H](Oc3ccncc3)CN2C1=O)OC1CCCC1 (stereo partly shown)
target | read-out | remaining binding [%]
Tyrosine-protein kinase ABL1, non-phosphorylated (ABL1, Homo sapiens, UniProt P00519) | binding | 85
CDC42BPA (Homo sapiens, UniProt Q5VT25) | cell-free assay | 87
TYRO3 (Homo sapiens, UniProt Q06418) | cell-free assay | 100
GAK (Homo sapiens, UniProt O14976) | binding | 90
EGFR (Homo sapiens, UniProt P00533, G719C) | cell-free assay | 59
PAK4 (Homo sapiens, UniProt O96013) | binding | 99
MYLK3 (Homo sapiens, UniProt Q32MK0) | binding | 75
Aurora kinase C (AURKC, Homo sapiens, UniProt Q9UQB9) | binding | 92
BRAF (Homo sapiens, UniProt P15056, V600E) | cell-free assay | 93
HUNK (Homo sapiens, UniProt P57058) | binding | 100

Sample 2 — method: RNA Bind-n-Seq; molecule type: RNA; sample: in vitro; concentration: 365 nM; relative to: no-protein control; direction: higher = stronger binding
Target: RNA binding protein fox-1 homolog 2, RRM domain, GST-SBP tag (RBFOX2, Homo sapiens, UniProt O43251-10, residues 100-194)
Notes: natural RNA segment, single round, ends assumed
Constant ends, left off below: GGGAGUUCUACAGUCCGACGAUC … UGGAAUUCUCGGGUGCCAA
Construct (chain): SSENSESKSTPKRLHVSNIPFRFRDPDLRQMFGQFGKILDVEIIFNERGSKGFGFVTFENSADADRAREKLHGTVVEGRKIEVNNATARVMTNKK
Strand | RBNS enrichment (R)
GCCACUUAAUUAAGAUAAAAAUGCUUAGUUAUUUAUGUUAGUAUCUAGCUUUUAAAGAACUACAUGUGUCUUUAAAAGUAUUUAUUGUGCAAAUGUACUAUAGCAGUUCA | 0.455
GCCAAGCCCAGGAUGCCAGCUGGCACCUCUGCAAUCUCCCCACCAAAUACACAGAGCCAGCUCUACCCACUCCUAAGAGCAGAGGCCAACUCUAAAGAAAGGUCUCAGGU | 0.655
AAUUGAGCUAUUUUCACUUACUGUGUAACAGAGACAGAUAAUAAAUCUAUCAUUUGAUUUGAACUUGGCUGUGAAGACUUUUUAUUGUUCCAGUGGCUACGGUGGUGGUG | 0.536
AGAAUCCAGAGACCAAACCCUGACCCACCUCCUUCCUUUCCUCCAGCCCACGCUGGUCUGUCCCCAUGCCUUCCCAGGGCUUCUUCAUGUCGGAUGCACCCAAGUCCUUA | 0.837
AGCUGUUAAUUCUUUCAUUCAUGUCCCUGCUGAGACACUGAUAUUAGCAACUUAGAGUUGGUGAGUUUAAUCUUCAGUCAUACCAGCUCCAAGAGAUGAGGCCUCAGUCC | 0.313
CGCAGCUUCUCCAGGAACCCCUCAGAUGCAAGGCAACCCCACUAUGGUGCCCCUGCCCCCCGGGGUCCAGCCGCCUCUGCCGCCCGGGGCCCCUCCCCCUCCGCCGCCUC | 0.401
UUUUUAAUUAUGUACUGGGGACAGGUUUUUGUCGCUUUACAUUGCUUCCUAGUUUACAGCAUGAUGCAAAUGAUUUUCUAACUUAGUGUUAGGAGAAAAUAUUUUCCAUC | 0.548
UGGAUAGUCAGGAAAAGAUUUAAUGUUUAAUAUUUAAACAAAAUAUUUAAUGUCUAUACAGUAAAAUUAUUCAAACUUCAAACCAGUAUUGAAAGCAGUUGGAAACCAGC | 0.365

Sample 3 — method: RNA Bind-n-Seq; molecule type: RNA; sample: in vitro; concentration: 1 µM; notes: whole 134-nt RNA, ends assumed; together with: 150 mM KCl; relative to: input library; direction: higher = stronger binding
Target: Ras GTPase-activating protein-binding protein 1, RRM domain (G3BP1, Homo sapiens, UniProt Q13283)
Chain of UniProt Q13283 (whole entry, looked up): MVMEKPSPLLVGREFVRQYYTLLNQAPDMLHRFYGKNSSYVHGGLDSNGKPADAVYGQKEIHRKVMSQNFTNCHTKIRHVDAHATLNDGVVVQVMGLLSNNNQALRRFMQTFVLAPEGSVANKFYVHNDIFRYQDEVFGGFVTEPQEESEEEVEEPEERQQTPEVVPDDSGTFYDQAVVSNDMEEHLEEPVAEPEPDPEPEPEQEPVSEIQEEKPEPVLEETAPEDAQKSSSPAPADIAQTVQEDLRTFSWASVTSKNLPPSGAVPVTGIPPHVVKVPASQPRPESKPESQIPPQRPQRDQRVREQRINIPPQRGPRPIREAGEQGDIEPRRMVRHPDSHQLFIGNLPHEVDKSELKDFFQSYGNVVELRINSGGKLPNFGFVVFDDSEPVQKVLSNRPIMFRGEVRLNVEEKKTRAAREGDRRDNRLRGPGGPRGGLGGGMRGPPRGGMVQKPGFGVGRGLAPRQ
Constant ends, left off below: GGGAGUUCUACAGUCCGACGAUC … UGGAAUUCUCGGGUGUCAAGG
Strand | log2 enrichment
AAGUCCUGUGCUACACAUCGUAUGUACCGAAUCGGAAAAAAAGGUGGUUUUUUUGGAAAGUAUUAUGUUACGCCGUUCGGAUCUGCACUU | -0.154
UGGCCCUGGCGGCAUGCGGGGAGGAAGAGGUGGCCUCAUGGAUCGUGGUGGUCCCGGUGGAAUGUUCAGAGGUGGCCGUGGUGGAGACAG | 0.888
GAUUCCCUCCACAUGCUGCACGCGCAUCUCGCCCCCAGGGGCACUGCCUGGAAGAUUCAGGAGCCUGGGCGGCCUUCGCUUACUCUCACC | -0.268
CUGUGCUACACAUCGUAUGUACCGAAUCGGGAAAAAAAGGGAAAAAAAGGGGAAAAAAAGGAAAGUAUUAUGUUACGCCGUUCGGAUCUG | 0.125
UAACUUUAGAGGAGGAUCUGAUGGAUAUGGCAGUGGACGUGGAUUUGGGGAUGGCUAUAAAGGGUAUGGAGGAGGACCUGGAGGUGGCAA | -0.464
UCAAGUCCUGUGCUACACAUCGUAUGUACCGAAUCGGGAAAGGGGAAAGGAAAGGAAAGUAUUAUGUUACGCCGUUCGGAUCUGCACUUC | -0.276
CACAGACAACACGCACCCACACAGACACAGAGGGAAAAGGUUGGGAUGGGGACAGGGUGCACAGCAGGGCGGGGUAGGACCCCAGCCCCU | -0.0801
AAGUCCUGUGCUACACAUCGUAUGUACCGAAUCGGGUUUUUUUGGGUUUGGGUGGGAAAGUAUUAUGUUACGCCGUUCGGAUCUGCACUU | 0.265

Sample 4 — method: protein-binding microarray; molecule type: hairpin DNA; sample: in vitro; concentration: not given; relative to: not given; direction: higher = stronger binding; constant ends, left off below: GCAGGCCC … GGGCCTGCACACTCTTTCCCTACACGAC
Target: Transcription factor SOX-2, HMG box (SOX2, Homo sapiens, UniProt P48431, residues 37-118)
Chain of UniProt P48431 (37-118, looked up): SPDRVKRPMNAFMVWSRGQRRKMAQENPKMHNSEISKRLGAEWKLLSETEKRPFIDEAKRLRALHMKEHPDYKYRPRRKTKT
Notes: whole hairpin DNA, median over replicate spots
Strand | median fluorescence [a.u.]
GCAATGGGCCTCCTGGCCCATTGC | 2570
AAAATGGGCCTCCTGGCCCATTTT | 2500
ACACCGGGCCTCCTGGCCCGGTGT | 2520
ACAATCTGCCTCCTGGCAGATTGT | 2970
ACAATCTGCCTCCTGGCAGATTGT (5mC at 14) | 2770
ACAACCGGCCTCCTGGCCGGTTGT | 2570
ACACGGGGCCTCCTGGCCCCGTGT (5mC at 12) | 2300
ACGATGGGCCTCCTGGCCCATCGT (5mC at 10 30) | 2460
